Assay results of several laboratories.
Compare with care: the assays were run in different laboratories. ± gives the spread as reported.
MAOA: Amine oxidase [flavin-containing] A (MAOA, Homo sapiens, UniProt P21397)
UniProt P21397, sequence (whole entry, looked up): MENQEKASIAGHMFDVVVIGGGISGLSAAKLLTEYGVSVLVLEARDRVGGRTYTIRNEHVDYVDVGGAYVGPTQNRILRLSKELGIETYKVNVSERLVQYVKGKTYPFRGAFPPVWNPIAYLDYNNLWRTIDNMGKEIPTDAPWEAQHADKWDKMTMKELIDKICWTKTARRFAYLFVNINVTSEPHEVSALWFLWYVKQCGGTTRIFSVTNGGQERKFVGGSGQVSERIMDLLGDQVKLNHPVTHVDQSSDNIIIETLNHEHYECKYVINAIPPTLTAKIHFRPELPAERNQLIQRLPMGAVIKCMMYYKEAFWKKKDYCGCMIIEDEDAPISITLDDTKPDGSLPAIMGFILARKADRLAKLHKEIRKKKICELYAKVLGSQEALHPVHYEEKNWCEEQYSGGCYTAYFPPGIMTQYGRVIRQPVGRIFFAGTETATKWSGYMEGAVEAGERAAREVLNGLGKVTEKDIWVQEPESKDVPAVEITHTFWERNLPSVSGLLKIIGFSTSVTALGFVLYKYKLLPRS
MTOR: Serine/threonine-protein kinase mTOR (MTOR, Homo sapiens, UniProt P42345)
UniProt P16234, sequence (whole entry, looked up): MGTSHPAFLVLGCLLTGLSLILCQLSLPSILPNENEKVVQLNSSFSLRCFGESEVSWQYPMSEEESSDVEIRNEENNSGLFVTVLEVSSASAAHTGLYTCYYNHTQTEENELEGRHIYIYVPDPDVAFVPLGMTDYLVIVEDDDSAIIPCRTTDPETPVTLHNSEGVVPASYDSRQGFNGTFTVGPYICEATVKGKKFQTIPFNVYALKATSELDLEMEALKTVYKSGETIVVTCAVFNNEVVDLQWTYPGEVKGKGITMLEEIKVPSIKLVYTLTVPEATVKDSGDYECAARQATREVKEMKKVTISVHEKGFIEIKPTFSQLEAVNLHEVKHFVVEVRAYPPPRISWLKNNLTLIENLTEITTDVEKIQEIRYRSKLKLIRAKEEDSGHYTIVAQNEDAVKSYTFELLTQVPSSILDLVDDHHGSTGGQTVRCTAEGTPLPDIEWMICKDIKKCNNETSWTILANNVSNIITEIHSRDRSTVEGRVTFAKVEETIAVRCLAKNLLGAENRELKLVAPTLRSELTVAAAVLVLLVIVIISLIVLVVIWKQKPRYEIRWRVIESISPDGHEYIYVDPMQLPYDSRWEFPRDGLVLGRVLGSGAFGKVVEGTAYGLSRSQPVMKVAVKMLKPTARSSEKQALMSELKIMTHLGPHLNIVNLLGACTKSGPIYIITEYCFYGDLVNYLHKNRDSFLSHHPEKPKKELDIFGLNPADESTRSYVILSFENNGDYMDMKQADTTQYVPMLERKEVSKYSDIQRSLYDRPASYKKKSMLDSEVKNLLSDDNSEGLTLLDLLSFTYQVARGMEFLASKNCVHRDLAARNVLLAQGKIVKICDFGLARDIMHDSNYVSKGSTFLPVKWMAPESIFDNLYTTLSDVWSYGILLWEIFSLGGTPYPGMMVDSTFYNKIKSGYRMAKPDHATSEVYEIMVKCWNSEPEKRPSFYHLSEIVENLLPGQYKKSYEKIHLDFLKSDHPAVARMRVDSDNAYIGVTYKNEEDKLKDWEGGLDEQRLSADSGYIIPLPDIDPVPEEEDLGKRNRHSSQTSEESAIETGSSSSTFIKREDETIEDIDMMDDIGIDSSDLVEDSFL
UniProt P08236, sequence (whole entry, looked up): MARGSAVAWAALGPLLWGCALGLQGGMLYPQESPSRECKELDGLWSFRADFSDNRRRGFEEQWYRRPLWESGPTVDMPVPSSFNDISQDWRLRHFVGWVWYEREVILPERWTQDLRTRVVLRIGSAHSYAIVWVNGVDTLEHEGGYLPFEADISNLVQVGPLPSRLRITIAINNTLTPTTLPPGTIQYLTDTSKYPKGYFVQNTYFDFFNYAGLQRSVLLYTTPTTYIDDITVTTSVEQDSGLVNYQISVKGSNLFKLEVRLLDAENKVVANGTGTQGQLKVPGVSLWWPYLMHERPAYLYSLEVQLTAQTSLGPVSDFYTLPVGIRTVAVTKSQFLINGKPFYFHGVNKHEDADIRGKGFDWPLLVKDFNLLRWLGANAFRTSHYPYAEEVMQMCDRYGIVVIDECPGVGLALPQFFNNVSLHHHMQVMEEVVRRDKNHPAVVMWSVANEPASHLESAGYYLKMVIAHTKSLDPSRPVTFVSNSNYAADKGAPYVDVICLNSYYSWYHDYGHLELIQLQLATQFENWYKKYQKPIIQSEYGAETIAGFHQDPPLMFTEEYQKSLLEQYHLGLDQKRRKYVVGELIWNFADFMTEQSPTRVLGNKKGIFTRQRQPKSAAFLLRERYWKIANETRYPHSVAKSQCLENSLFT
UniProt P23443, sequence (whole entry, looked up): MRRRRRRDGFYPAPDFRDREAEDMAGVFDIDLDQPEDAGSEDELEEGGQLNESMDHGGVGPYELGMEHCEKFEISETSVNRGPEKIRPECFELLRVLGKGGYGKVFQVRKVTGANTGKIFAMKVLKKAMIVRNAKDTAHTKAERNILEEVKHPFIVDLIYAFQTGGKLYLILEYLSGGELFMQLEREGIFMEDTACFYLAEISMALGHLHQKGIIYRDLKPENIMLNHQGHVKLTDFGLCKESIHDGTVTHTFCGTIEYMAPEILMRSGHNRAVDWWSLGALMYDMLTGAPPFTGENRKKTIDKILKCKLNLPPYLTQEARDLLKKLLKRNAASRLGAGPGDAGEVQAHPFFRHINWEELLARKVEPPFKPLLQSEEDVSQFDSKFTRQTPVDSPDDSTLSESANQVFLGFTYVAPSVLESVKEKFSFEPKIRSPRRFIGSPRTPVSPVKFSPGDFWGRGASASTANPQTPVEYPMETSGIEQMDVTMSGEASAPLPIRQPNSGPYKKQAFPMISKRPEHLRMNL

SMILES	target	assay	test system	setting	remaining activity
NCCO[C@H]1[C@H](O)[C@@H](O)[C@@H]2O[C@@H]2[C@@H]1C(=O)O	Beta-glucuronidase (GUSB, Homo sapiens, UniProt P08236)	enzyme activity, inhibitor, competitive ABPP	human platelet lysate	0.1 µM, pH 5.0, pre-incubation 60 min	inactive
CC1(C)CCN(Cc2ccc(C(=O)NC[C@]3(O)CCCN(c4cc(NCc5ccccc5)ncn4)C3)c(O)c2)CC1	PDGFRA (Homo sapiens, UniProt P16234)	kinase activity, radiometric	–	10 µM, together with: 10 µM ATP	81%
O=C1Nc2ccc(Br)cc2/C1=N/N=C/c1ccc(OCc2ccccc2)cc1	MAOA	enzyme activity, inhibitor	–	10 µM	87.8%
CC(=O)N[C@@H](Cc1c[nH]c2ccccc12)C(=O)N[C@@H](Cc1c[nH]c2ccccc12)C(=O)N[C@@H](Cc1c[nH]c2ccccc12)C(=O)N[C@@H](Cc1c[nH]c2ccccc12)C(=O)N[C@@H](Cc1c[nH]c2ccccc12)C(=O)N[C@@H](Cc1c[nH]c2ccccc12)C(=O)NCCCC[C@@H]1NC(=O)[C@H](CCCNC(=N)N)NC(=O)[C@H](CCCNC(=N)N)NC(=O)[C@H](CCCNC(=N)N)NC(=O)[C@H](CCCNC(=N)N)NC(=O)[C@H](CCCNC(=N)N)NC(=O)[C@H](CCCNC(=N)N)NC1=O	MTOR	enzyme activity, inhibitor	–	5 µM	153%
O=C1Nc2ccc(I)cc2C1=Cc1cc(Br)c(O)c(Br)c1	beta-lactamase	–	–	up to 25 µM, together with: nitrocefin substrate	no effect
Cc1ccc2c(c1)/C(=N/N=C/c1ccc(OCc3cccc(F)c3)cc1)C(=O)N2	MAOA	enzyme activity, inhibitor	–	10 µM	84.4%
O=C=[N][Ru-4]123([n]4c5ccc(O)cc5c5c6c(c7cc(F)c[n+]1c7c54)C(=O)NC6=O)[S+]1CC[S+]2CC[S+]3CC1 (stereo not shown)	RPS6KB1 (Homo sapiens, UniProt P23443)	kinase activity, inhibitor	–	100 nM, together with: 10 µM ATP	54%
O=C1Nc2ccc(Cl)cc2/C1=N/N=C/c1ccc(OCc2cccc(F)c2)cc1	MAOA	enzyme activity, inhibitor	–	10 µM	84.4%
N=C(N)NCCC[C@@H]1NC(=O)[C@H](Cc2c[nH]c3ccccc23)NC(=O)[C@H](CCCNC(=N)N)NC(=O)[C@H](Cc2c[nH]c3ccccc23)NC(=O)[C@H](CCCNC(=N)N)NC(=O)[C@H](Cc2c[nH]c3ccccc23)NC(=O)[C@H](CCCNC(=N)N)NC(=O)[C@H](Cc2c[nH]c3ccccc23)NC(=O)[C@H](CCCNC(=N)N)NC(=O)[C@H](Cc2c[nH]c3ccccc23)NC(=O)[C@H](CCCNC(=N)N)NC(=O)[C@H](Cc2c[nH]c3ccccc23)NC(=O)[C@H](CCCNC(=N)N)NC(=O)[C@H](Cc2c[nH]c3ccccc23)NC(=O)[C@H](CCCNC(=N)N)NC(=O)[C@H](Cc2c[nH]c3ccccc23)NC(=O)[C@H](CCCNC(=N)N)NC(=O)[C@H](Cc2c[nH]c3ccccc23)NC1=O	MTOR	enzyme activity, inhibitor	–	5 µM	133%
NC(CNC(CNC(CC(=O)O)C(=O)O)C(=O)O)C(=O)O (stereo not shown)	IMP-7 metallo-beta-lactamase	–	–	500 µM, 0 min, Zn-depleted buffer	87.4 ± 5.1%
